{"data": "Results gathered from unrelated publications", "note": "Numbered parts are unrelated; each lists some results of a single study. Positions count from the first letter of the parent shown."}
{"data": "Series 1", "target": "Histone acetyltransferase KAT6A, winged helix 2, GST fusion (KAT6A, Homo sapiens, UniProt Q92794, residues 85-181)", "technique": "protein binding microarray", "form": "double-stranded DNA, one strand shown", "medium": "in vitro", "tested at": "not given", "setting": "8-mer, flanks averaged, mean of 2 arrays, mostly near background", "relative to": "not given", "direction": "higher = stronger binding", "Construct (chain)": "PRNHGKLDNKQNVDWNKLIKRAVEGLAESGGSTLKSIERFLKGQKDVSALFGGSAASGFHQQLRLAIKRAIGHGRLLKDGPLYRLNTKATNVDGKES"}
{"Strand": "ATAGAGAC", "E-score": -0.176}
{"Strand": "GCGACTAC", "E-score": -0.123}
{"Strand": "GACGGCAA", "E-score": 0.14}
{"Strand": "ATGCTATG", "E-score": 0.0757}
{"Strand": "ACGTGGGG", "E-score": -0.0448}
{"Strand": "ATATCCAA", "E-score": 0.0571}
{"Strand": "CCCGGGCG", "E-score": 0.256}
{"Strand": "GTGTACGA", "E-score": 0.127}
{"Strand": "ATATAGTG", "E-score": -0.0312}
{"Strand": "AGTTGAGA", "E-score": -0.195}
{"Strand": "AGACTGCT", "E-score": -0.282}
{"Strand": "GTCCGGGA", "E-score": 0.17}
{"Strand": "ATCAGAGG", "E-score": 0.0915}
{"Strand": "GTTGAGTA", "E-score": -0.0541}
{"Strand": "AAATCCGG", "E-score": 0.183}
{"data": "Series 2", "target": "RING finger protein unkempt homolog, zinc fingers 1-6, GST-SBP tag (UNK, Homo sapiens, UniProt Q9C0B0, residues 30-357)", "technique": "RNA Bind-n-Seq", "form": "RNA", "medium": "in vitro", "tested at": "not given", "setting": "RNA with constant flanks, human and mouse sites, ends assumed", "relative to": "input RNA pool", "direction": "higher = stronger binding", "all sequences stand within": "GGGAGUUCUACAGUCCGACGAUC … CAACAGAGGAUUGAGCAUCA", "Target sequence (chain)": "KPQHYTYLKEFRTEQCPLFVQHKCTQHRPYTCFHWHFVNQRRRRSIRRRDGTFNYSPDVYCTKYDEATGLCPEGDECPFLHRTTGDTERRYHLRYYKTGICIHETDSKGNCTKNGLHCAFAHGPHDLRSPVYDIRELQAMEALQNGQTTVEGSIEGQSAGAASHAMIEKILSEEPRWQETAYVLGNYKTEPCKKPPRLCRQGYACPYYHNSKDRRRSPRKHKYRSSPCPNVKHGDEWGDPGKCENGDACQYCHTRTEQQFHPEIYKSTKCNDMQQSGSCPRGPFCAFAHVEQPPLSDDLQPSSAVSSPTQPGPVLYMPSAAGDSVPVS"}
{"Strand": "UACACAUCAUUUUGGAAUGACUGUAUAUCAUCUGGAUUACGUGGCUGUAUGUUAAUUGAAUUAGCUUUGAGAGGAAGGUUACAGUUAGAGGCUUGUGGAAUGAGAAGAAAAAGUCUUUUA", "bound/input enrichment [ratio]": 0.423}
{"Strand": "UUUUCUUUUUCUUUUUUUAAAAGAAUGAAUGUAAGCCUUUUGUGUAAUAGGGGCAUUUGUGAUUUAAAAUUGGUGAUGUUUUAAACAGCUGCCUACAAAAGUAUUUCUGUUAAGCUGAUG", "bound/input enrichment [ratio]": 0.287}
{"Strand": "GGAGAUCGGGCCGCGCGCUGAGAGCACCGAGUGGCGGAGAGGCCGCGCGGCGCGGGGCAGGGCCCGAGCGCAGCCCCCGGACGCAGGAGACCGGAGCGCAGUCGCGGCCUGAGCGGCGGG", "bound/input enrichment [ratio]": 1.32}
{"Strand": "GGUUUGAUGCCUGGCACUUCAAGUGAUUUCAAGUAUGGGUUGCUACCAAGUACUUCAAAUGACUUCAAAUUCGGAUUGCUACCGGGUGCUUCAAAUGAUUUCAAGUAUGGAUUAUUGCCA", "bound/input enrichment [ratio]": 0.0999}
{"Strand": "AAGAAUCGGAUGAAUUGAUGAAGAGUUGAGUUACCUGCAACCCAUUGAGAAGUGUCCUGUGCGUCUGUUUUGUGUCUGGUGCAGAAAAUGACAAUCUACCAACUGUCCCCUUAUUUGGAG", "bound/input enrichment [ratio]": 0.214}
{"data": "Series 3", "target": "CCNA2, cyclin fold, Cln2 fusion (human)", "technique": "yeast growth competition, sequencing", "medium": "yeast", "setting": "strong parent motif", "relative to": "not given", "direction": "higher = stronger binding", "starting sequence": "BRCA2 docking peptide (human); CKKRRALDFLSRL"}
{"Change": "CKKRRALDFLSRA [L13A]", "normalised enrichment score": 2.77}
{"Change": "CKKARALDFLSRL [R4A]", "normalised enrichment score": 1.31}
{"Change": "AKKRRALDFLSRL [C1A]", "normalised enrichment score": 2.57}
{"Change": "CKKRRALDLLSRL [F9L]", "normalised enrichment score": 1.88}
{"Change": "CKKRRAADFLSRL [L7A]", "normalised enrichment score": 1.67}
{"Change": "CAKRRALDFLSRL [K2A]", "normalised enrichment score": 2.24}
{"Change": "CKKRRALAFLSRL [D8A]", "normalised enrichment score": 1.17}
{"data": "Series 4", "target": "Sal-like protein 4, full length isoform A (SALL4, Homo sapiens, UniProt Q9UJQ4, residues 1-1053)", "technique": "universal PBM", "form": "double-stranded DNA, one strand shown", "medium": "in vitro", "tested at": "600 nM", "setting": "8-mer, flanks averaged, mean of replicates", "direction": "higher = stronger binding", "chain of UniProt Q9UJQ4 (whole entry, looked up)": "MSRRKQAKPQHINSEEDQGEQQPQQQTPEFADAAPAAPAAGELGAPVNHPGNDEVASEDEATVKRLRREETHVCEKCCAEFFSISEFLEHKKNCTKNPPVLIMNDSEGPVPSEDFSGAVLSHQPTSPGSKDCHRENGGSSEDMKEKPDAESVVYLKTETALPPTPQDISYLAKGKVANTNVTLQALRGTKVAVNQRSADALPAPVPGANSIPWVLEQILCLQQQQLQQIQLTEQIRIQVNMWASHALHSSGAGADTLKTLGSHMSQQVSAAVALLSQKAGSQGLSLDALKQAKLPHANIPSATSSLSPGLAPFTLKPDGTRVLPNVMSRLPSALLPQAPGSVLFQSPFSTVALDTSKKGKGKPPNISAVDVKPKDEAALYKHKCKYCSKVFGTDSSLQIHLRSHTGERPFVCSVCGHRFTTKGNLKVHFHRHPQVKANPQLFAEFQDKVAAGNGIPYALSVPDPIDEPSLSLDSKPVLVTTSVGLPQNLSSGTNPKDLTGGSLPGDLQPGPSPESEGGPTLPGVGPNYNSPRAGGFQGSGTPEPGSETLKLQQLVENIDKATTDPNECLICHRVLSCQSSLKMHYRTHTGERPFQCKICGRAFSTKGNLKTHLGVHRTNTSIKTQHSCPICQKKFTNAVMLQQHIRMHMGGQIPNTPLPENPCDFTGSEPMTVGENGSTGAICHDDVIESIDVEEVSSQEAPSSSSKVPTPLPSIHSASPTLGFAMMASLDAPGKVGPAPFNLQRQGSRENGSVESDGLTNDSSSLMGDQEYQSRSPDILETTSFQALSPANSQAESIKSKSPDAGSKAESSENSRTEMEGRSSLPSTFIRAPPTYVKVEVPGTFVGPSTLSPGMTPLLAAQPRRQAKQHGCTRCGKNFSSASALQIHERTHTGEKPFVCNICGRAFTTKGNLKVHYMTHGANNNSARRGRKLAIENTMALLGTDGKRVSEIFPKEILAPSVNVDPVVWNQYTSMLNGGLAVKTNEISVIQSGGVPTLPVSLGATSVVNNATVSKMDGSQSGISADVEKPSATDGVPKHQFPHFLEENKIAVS"}
{"Strand": "ACTCTGCG", "E-score": -0.116}
{"Strand": "CTCGGATC", "E-score": -0.175}
{"Strand": "CGTGCTGC", "E-score": -0.187}
{"Strand": "TAGCACTA", "E-score": 0.093}
{"Strand": "CTTGGTCA", "E-score": 0.0267}
{"Strand": "GAATGTGC", "E-score": 0.0556}
{"Strand": "CTATCGGC", "E-score": -0.0909}
{"Strand": "GCCTTCGA", "E-score": -0.162}
{"Strand": "TGAGCGAA", "E-score": -0.00683}
{"Strand": "GCATTCGC", "E-score": -0.104}
{"Strand": "ACCAAATG", "E-score": -0.0187}
{"Strand": "CCCCGTCA", "E-score": -0.258}
{"Strand": "CGACACTC", "E-score": -0.111}
{"Strand": "AAGTCGAC", "E-score": 0.052}
{"Strand": "CTTGCAAC", "E-score": -0.0031}
{"Strand": "CTTGACAC", "E-score": -0.0952}
{"Strand": "AAGAACTG", "E-score": -0.0419}
{"Strand": "CCCGCTAA", "E-score": -0.283}
{"Strand": "AGCCATGC", "E-score": -0.0892}
{"Strand": "GAAGGCGA", "E-score": -0.216}
{"data": "Mixed results"}
{"Substance": "PhoQ, residues 284 288 289 292 302 303 ALVSVA", "target": "PhoP, residues 12 14 15 18 19 TTLRV (Escherichia coli, UniProt P23836)", "assay": "Sort-seq, measured: YFP reporter", "system": "E. coli", "setting": "PhoQ-PhoP variant library, with: 10 µM Mg2+", "how to read": "relative to: high Mg2+ state, higher = stronger signaling", "measurement": "fold induction", "result": 4.35}
{"note": "Repeated from above (series 4):"}
{"Strand": "CCCCGTCA", "E-score": -0.258}
{"Strand": "CGACACTC", "E-score": -0.111}
{"Strand": "AAGTCGAC", "E-score": 0.052}
{"Strand": "CTTGCAAC", "E-score": -0.0031}
